Measured values gathered from unrelated publications.
A part holds a random share of what one study measured. Values joined by “and” are separate records of one study, mostly repeats; a detail may differ.
UniProt Q59H18, sequence (whole entry, looked up): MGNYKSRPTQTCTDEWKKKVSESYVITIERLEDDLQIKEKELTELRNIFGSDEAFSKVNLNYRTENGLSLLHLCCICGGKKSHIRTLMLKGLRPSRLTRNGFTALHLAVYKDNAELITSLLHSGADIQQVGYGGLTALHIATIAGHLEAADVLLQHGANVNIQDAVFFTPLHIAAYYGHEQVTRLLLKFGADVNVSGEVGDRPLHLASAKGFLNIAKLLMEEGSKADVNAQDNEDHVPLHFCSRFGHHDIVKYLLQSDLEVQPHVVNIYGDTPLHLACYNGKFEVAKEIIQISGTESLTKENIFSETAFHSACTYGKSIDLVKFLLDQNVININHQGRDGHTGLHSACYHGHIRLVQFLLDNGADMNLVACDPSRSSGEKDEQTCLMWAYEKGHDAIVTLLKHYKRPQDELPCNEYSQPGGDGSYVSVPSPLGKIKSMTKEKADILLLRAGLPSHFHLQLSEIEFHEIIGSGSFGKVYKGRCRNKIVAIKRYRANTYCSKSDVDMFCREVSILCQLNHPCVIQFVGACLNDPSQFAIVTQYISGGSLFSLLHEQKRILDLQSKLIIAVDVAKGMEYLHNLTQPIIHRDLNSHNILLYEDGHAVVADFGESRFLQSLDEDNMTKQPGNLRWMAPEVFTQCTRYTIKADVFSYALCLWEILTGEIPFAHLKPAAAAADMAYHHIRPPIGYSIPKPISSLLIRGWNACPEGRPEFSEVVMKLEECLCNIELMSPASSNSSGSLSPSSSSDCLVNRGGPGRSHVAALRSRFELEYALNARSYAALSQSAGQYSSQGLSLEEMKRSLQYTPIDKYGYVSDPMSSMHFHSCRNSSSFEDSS
UniProt P19525, sequence (whole entry, looked up): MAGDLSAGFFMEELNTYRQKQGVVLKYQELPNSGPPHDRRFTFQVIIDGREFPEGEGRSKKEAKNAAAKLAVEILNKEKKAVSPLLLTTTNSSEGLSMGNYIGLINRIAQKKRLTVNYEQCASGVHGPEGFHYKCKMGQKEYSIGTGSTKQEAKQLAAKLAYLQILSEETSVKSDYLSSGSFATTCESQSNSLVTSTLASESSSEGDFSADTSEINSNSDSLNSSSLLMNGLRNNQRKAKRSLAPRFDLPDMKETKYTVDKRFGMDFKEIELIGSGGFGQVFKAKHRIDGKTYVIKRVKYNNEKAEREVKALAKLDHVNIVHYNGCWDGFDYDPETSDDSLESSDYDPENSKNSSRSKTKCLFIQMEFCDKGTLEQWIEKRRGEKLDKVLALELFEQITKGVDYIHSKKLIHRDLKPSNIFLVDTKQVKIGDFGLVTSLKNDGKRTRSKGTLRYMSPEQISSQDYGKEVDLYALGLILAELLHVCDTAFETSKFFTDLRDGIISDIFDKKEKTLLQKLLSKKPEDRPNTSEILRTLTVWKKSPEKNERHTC
UniProt Q96RR4, sequence (whole entry, looked up): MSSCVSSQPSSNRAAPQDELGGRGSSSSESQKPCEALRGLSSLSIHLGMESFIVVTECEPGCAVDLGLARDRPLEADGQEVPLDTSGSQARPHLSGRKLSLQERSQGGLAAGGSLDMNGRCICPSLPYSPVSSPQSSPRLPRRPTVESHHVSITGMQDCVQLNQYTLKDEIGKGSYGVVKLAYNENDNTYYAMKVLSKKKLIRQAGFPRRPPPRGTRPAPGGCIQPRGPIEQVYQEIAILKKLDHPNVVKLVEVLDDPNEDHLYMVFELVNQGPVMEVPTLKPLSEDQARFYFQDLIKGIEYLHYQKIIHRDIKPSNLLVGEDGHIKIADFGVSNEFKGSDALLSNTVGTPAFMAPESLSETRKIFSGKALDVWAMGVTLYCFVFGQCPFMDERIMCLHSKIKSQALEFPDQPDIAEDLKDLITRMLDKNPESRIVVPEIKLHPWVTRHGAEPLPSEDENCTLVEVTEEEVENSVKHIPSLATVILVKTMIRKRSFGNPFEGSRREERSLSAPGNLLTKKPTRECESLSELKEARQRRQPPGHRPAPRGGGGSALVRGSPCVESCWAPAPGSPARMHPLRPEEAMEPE

Set 1 — organism: Sarcocystis neurona; observed: parasite growth; concentration: 10 µM; time: 96 h; notes: first screen; baseline: untreated
Under “log2 fold change”, `O=[N+]([O-])c1cccc2cn[nH]c12` is recorded as -0.0273.
Under “log2 fold change”, `O=C1CC[C@@H](C(=O)N2CSC[C@H]2C(=O)O)N1` is recorded as 0.12.
Under “log2 fold change”, `Cc1cccc(Nc2ccncc2S(=O)(=O)NC(=O)NC(C)C)c1` is recorded as 0.23.
`O=C(O)c1cc(/N=N/c2ccc(S(=O)(=O)Nc3ccccn3)cc2)ccc1O`: “log2 fold change” 0.05.
`COC(=O)CCc1ccc(OCC(O)CNC(C)C)cc1` (stereo not shown): “log2 fold change” -0.06.

Set 2 — observed: enzyme activity; action: inhibitor; concentration: 0.5 µM; baseline: control
Target: Serine/threonine-protein kinase PAK 1 (PAK1, Homo sapiens, UniProt Q13153)
UniProt Q13153, sequence (whole entry, looked up): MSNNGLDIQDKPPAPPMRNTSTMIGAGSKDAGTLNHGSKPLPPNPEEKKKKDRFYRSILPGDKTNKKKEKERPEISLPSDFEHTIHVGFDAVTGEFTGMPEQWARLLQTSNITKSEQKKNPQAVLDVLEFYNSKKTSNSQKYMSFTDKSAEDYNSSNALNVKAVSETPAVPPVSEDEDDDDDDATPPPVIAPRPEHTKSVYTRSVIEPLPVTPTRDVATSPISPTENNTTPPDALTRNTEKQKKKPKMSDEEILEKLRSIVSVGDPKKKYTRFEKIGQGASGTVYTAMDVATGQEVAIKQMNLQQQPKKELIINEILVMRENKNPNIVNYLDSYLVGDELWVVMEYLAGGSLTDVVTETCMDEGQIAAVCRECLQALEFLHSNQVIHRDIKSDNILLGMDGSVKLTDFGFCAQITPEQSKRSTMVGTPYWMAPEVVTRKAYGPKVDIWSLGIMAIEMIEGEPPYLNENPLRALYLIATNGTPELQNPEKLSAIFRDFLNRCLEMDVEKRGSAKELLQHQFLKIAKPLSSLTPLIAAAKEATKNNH
With `Nc1ccc2ncnc(NCCc3ccc(Oc4ccccc4)cc3)c2c1` the remaining activity was 94.9%.
For `COc1ccc(C(=O)Nc2sc3c(c2C(N)=O)CCCC3)cc1OC`, the remaining activity was 94%.
`Cc1ccc(NC(=O)c2ccc(CN3CCN(C)CC3)cc2)cc1Nc1nc(-c2cccnc2)cs1` gave a remaining activity of 104%.
The remaining activity of `OCC(O)CCON=C1C(c2c(O)[nH]c3ccccc23)=Nc2ccccc21` (stereo not shown) is reported as 71.3%.
`Nc1ncnc2n[nH]c(Nc3ccc(F)cc3)c12` gave a remaining activity of 95.2%.
The remaining activity of `COc1cc2ncnc(Nc3ccc(Oc4ccccc4)cc3)c2cc1OC` is reported as 98.2%.
For `Cn1sc(=O)n(Cc2ccccc2)c1=O`, the remaining activity was 94.1%.
For `CC(C)[C@H](CO)Nc1nc(Nc2cc(N)cc(Cl)c2)c2ncn(C(C)C)c2n1`, the remaining activity was 81.8%.
The remaining activity of `O=S(=O)(c1cccc2cnccc12)N1CCCNCC1` is reported as 94.6%.
The remaining activity of `O=C1NC(=O)C(c2cn(CCCn3ccnc3)c3ccccc23)=C1Nc1ccccc1` is reported as 92.9%.
`Cc1nc(-c2ccccc2)c(-c2ccncc2)o1` gave a remaining activity of 98.7%.
`CCOC(=O)c1c(C)[nH]c(/C=C2\C(=O)Nc3ccccc32)c1C` gave a remaining activity of 99.9%.
With `Cn1c2ccccc2c2c3c(c4c5ccccc5n(CCC#N)c4c21)CNC3=O` the remaining activity was 83.3%.
`NCCNc1ncc(C(N)=O)c(Nc2cccc(C(F)(F)F)c2)n1` gave a remaining activity of 86.8%.

Set 3 — observed: enzyme activity; action: inhibitor; concentration: 77 µM; baseline: untreated
Target: DNA polymerase theta, ATPase domain (POLQ, Homo sapiens, UniProt O75417)
UniProt O75417, sequence (whole entry, unmodified, looked up): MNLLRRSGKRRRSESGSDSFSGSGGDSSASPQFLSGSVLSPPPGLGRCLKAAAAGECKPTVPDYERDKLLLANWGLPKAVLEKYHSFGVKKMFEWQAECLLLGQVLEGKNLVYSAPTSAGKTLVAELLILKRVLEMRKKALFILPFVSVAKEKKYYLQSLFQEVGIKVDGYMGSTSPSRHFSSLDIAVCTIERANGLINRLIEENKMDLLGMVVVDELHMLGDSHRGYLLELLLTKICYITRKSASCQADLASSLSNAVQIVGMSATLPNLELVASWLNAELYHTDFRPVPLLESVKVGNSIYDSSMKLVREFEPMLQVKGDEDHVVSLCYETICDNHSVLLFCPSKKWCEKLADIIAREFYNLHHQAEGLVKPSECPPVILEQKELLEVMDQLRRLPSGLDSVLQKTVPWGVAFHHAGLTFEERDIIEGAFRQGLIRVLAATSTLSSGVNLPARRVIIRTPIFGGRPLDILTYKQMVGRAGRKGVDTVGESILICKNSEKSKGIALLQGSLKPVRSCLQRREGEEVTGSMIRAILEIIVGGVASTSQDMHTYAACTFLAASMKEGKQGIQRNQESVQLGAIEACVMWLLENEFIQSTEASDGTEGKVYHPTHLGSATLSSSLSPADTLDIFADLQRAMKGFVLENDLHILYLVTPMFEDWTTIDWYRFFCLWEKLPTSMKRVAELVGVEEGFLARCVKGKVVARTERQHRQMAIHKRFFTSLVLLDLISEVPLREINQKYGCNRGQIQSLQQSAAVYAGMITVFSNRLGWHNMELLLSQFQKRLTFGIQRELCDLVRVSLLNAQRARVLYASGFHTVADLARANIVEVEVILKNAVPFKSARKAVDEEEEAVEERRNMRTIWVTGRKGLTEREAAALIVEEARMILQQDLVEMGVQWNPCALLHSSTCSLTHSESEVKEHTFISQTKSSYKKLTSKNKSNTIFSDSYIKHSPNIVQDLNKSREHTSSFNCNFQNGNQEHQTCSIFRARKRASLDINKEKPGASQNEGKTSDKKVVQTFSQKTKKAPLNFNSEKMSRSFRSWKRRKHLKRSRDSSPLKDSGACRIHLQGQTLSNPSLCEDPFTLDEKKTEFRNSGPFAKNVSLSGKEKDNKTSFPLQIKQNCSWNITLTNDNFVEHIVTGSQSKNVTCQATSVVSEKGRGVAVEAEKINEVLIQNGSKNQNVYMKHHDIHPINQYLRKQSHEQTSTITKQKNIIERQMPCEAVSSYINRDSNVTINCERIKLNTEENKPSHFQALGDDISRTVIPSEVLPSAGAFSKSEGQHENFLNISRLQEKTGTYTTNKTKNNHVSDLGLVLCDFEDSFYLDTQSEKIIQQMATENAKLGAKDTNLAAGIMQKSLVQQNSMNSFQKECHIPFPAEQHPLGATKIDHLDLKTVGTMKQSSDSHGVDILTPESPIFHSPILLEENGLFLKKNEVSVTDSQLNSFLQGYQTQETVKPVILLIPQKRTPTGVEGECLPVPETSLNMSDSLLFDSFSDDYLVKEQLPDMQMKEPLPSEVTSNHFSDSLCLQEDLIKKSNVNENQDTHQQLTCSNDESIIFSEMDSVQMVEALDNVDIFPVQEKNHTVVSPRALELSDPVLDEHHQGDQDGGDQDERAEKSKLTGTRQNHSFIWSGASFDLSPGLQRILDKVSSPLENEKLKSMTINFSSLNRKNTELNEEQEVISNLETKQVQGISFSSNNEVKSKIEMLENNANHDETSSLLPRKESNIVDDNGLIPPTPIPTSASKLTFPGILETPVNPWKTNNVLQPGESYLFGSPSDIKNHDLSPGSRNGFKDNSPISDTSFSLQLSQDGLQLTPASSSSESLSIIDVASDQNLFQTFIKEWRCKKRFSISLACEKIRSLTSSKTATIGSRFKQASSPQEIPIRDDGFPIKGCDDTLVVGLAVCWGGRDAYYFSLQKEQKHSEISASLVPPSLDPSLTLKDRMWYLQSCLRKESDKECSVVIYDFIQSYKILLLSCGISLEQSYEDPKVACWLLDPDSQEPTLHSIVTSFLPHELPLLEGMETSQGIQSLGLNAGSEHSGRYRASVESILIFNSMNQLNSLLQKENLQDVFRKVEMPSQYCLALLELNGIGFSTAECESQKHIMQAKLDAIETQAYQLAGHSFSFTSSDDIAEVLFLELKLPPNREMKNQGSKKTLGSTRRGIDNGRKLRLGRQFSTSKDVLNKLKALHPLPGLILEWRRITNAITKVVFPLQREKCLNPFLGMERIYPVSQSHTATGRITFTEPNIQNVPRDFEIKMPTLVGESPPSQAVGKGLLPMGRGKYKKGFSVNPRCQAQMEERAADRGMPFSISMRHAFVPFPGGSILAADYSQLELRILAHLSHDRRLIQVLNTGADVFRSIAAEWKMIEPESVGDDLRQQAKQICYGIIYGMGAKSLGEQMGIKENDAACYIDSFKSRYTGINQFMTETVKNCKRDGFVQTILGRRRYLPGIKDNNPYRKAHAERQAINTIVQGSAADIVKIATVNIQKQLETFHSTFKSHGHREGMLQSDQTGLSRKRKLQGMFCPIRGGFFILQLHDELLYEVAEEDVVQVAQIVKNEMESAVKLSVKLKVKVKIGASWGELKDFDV
With `O=C1NC(=O)/C(=C/c2ccc3nccnc3c2)S1` the remaining activity was 110%.
With `C=CCSCC1Nc2cc(Cl)c(S(N)(=O)=O)cc2S(=O)(=O)N1` (stereo not shown) the remaining activity was 91.8%.
The remaining activity of `C[C@@]12C(=O)OC(=O)[C@]1(C)[C@H]1CC[C@@H]2O1` is reported as 93.8% and 95.5%.
For `CS(=O)(=O)c1ccc(-n2nc(C(F)(F)F)cc2-c2ccc(F)cc2)cc1`, the remaining activity was 96%.
The remaining activity of `CNC(=N)NCCC[C@H](N)C(=O)O` is reported as 98.3%.

Set 4 — observed: cell-free assay; method: competition with immobilised ligand; concentration: 1 µM
Structure (SMILES): CN(C)CC#Cc1ccc(OCCCc2sc(N3CCc4cccc(C(=O)Nc5nc6ccccc6s5)c4C3)nc2C(=O)O)c(F)c1
For Interferon-induced, double-stranded RNA-activated protein kinase (EIF2AK2, Homo sapiens, UniProt P19525): remaining binding read 100%.
The remaining binding was 100% (STE20/SPS1-related proline-alanine-rich protein kinase (STK39, Homo sapiens, UniProt Q9UEW8)).
For Tyrosine-protein kinase ABL1, phosphorylated (ABL1, Homo sapiens, UniProt P00519, Y253F): remaining binding read 93%.
For MAP kinase-activated protein kinase 2 (MAPKAPK2, Homo sapiens, UniProt P49137): remaining binding read 88%.
The remaining binding was 100% (Calcium/calmodulin-dependent protein kinase kinase 2 (CAMKK2, Homo sapiens, UniProt Q96RR4)).
The remaining binding was 100% (Serine/threonine-protein kinase TNNI3K (TNNI3K, Homo sapiens, UniProt Q59H18)).
For Receptor-type tyrosine-protein kinase FLT3 (FLT3, Homo sapiens, UniProt P36888, D835Y): remaining binding read 83%.

A few entries again (set 2):
For `Cn1sc(=O)n(Cc2ccccc2)c1=O`, the remaining activity was 94.1%.
`CCOC(=O)c1c(C)[nH]c(/C=C2\C(=O)Nc3ccccc32)c1C` gave a remaining activity of 99.9%.
